Measured values from different studies.
A part holds a random share of what one study measured.

Block 1
Target: Sal-like protein 4, full length isoform A (SALL4, Homo sapiens, UniProt Q9UJQ4, residues 1-1053)
Chain of UniProt Q9UJQ4 (whole entry, looked up): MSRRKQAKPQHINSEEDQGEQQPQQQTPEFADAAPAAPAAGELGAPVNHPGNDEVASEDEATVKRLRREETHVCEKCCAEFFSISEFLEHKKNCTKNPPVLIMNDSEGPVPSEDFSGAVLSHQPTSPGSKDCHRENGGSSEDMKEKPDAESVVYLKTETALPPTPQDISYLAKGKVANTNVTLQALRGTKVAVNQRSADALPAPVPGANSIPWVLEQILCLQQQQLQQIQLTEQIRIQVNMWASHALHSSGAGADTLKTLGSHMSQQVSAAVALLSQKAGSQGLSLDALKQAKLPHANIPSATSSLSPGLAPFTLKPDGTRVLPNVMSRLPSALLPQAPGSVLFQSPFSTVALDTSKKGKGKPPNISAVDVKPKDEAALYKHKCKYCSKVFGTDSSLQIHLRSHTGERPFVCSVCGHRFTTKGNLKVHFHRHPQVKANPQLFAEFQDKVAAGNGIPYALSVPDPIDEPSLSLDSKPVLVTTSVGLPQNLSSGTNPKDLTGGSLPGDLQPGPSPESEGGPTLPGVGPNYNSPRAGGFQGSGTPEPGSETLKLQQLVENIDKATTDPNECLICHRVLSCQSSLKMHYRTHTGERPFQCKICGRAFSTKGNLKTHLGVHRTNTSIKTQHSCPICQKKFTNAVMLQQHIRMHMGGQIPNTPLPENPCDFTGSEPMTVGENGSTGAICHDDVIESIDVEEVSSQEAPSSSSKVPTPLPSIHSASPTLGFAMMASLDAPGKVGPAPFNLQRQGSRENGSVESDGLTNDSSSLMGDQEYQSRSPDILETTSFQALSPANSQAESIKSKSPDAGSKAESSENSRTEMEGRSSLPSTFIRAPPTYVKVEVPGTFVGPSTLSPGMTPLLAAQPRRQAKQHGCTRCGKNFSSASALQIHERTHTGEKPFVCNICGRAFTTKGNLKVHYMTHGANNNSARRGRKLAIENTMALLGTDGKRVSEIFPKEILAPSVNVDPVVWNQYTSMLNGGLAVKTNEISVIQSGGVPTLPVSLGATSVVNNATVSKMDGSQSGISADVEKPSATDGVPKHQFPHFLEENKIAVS
Method: universal PBM
Molecule type: double-stranded DNA, one strand shown
Sample: in vitro
Tested at: 600 nM
Setting: 8-mer, flanks averaged, mean of replicates
Reading: higher = stronger binding
| Oligonucleotide | E-score |
| --- | --- |
| GGGTTTCA | -0.0474 |
| ACGGGTTA | -0.0525 |
| CACCTCCC | -0.324 |
| CAACTGGA | -0.205 |
| CTTTATTC | 0.166 |
| GCCAGCAC | -0.209 |
| CTGTTCAA | 0.0388 |
| ACTGCTAC | 0.0165 |
| ATCGAAAG | 0.115 |
| GTATACGA | 0.00719 |
| CTTCCGAA | 0.0718 |
| ACAGGCTG | -0.132 |
| CGTTGGTA | -0.076 |
| ACCTTAGT | 0.0516 |
| AAGATAAT | 0.28 |
| CAGACCAA | -0.0353 |

Block 2
Target: RNA binding protein fox-1 homolog 2, RRM domain, GST-SBP tag (RBFOX2, Homo sapiens, UniProt O43251-10, residues 100-194)
Method: RNA Bind-n-Seq
Molecule type: RNA
Sample: in vitro
Tested at: 365 nM
Setting: natural RNA segment, single round, ends assumed
Reference: no-protein control
Reading: higher = stronger binding
Residues (chain): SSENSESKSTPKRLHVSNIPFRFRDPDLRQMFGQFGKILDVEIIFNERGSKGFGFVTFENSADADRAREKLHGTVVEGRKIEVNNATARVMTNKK
| Oligonucleotide | RBNS enrichment (R) |
| --- | --- |
| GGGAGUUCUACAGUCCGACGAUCUUUGGCUGUGCCUGGGUAGGGGCACUGUGCCUGCUUCUGAUUUUGAAAGAAGCAUCCUGGAAACCAUGAAGUAUUCUACUAUGAAGGGCGCAUCUGCCCUGGUCAGCUGUUGGAAUUCUCGGGUGCCAA | 0.324 |
| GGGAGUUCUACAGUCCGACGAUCUUUAAACUCCCCCCUCCCUUUUUGGUAGCUGUUUUCUCCGUCCUCUCUCCACCUGCCCUCUUAUCUAGGAGCUGUUUGUAAGCACGAUUUUUUUAACAGGUUAUAUUGUAUGGAAUUCUCGGGUGCCAA | 1.44 |
| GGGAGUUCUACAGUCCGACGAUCAUUCCUUAUCAGAUAGUAAGUAACCUGUAAGUUUGGAGUAUUACUGUUUUCUCAGCAUGCAUUAAAAAUAUUCCUUAACUUCAAUUGUAAAUAAACUUUUGGUGUUAGGGUGGAAUUCUCGGGUGCCAA | 9.89 |
| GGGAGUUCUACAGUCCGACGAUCAAAGCAAGAGUAUUUGGAGCAAGAAGCUGCAAUGCGCCAAAUACACAAUAGGCCUUUUCUUUAUCAUUCAUACGACAUUUCUGGUUUAGGUGUAUGUAGUUGGGCCAUGUUGGAAUUCUCGGGUGCCAA | 0.578 |
| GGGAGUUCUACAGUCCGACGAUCUAUAUUUUGUUCUUCAUAGUCUGUUUUUUCUAGCAUGCUUGAUUUAGGAGAGAAUAAAGGGCUAUAUAAUAAUAAAUCCAGAUUUCCGGAUAAGAAUAUUGCCUGGUUAAUGGAAUUCUCGGGUGCCAA | 50 |
| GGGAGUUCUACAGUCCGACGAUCUAAAUUAAAAACCACAAGUGUUUAUUGUAGUGGUUAAACUGUAGCAUCUCAGCAUCUGGGUGGAAGCUGCCUAUAUUUCUUCCCAGUUUAACUGGGGACCAUCUGUGAAAUGGAAUUCUCGGGUGCCAA | 0.664 |
| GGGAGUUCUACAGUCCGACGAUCUAGUCACAGCUUCUACUUGCAUAGCCCUCAGCUCCUCGAUGCAGGAAGGGGGCACUGCAUUGCUCUUUUGUUGCAGAGGCAGGGGGUAACUGCAUUAUUAUUGUGAAACAUGGAAUUCUCGGGUGCCAA | 0.477 |
| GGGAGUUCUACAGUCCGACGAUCGCUUCCUUAUCUGGAAGCCUUUCUGGAUUAAUCCAGUGAUGGUCCCACCUUUAGUGUUUGAGCUUUGUCAUUGCUUGUCUCCCUGGCAUGUGCCAGUUAUAGACUGUCCAUGGAAUUCUCGGGUGCCAA | 0.278 |
| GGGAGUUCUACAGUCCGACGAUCCCCUAAUUGUUGAUACUCAUUUUCUCCGUUUGCAAAAUGAAGAUACUCAUUGUUAGGAUCCUACUGCUGAAGGGUGCUAUGUCACUUUCUAGUGCUCUUAUAUGUCUUUAUGGAAUUCUCGGGUGCCAA | 0.442 |
| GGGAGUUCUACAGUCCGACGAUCAGUCUUCAGGCAGCAUGGCCAAGGUGAAGGAGCGACUUUGAGAUGCUCAUGGAAUCCAGUCGAGCAGAAGUUUCGGACAGCCCACCACAUCACCAUGUUCCUUGUUAACAUGGAAUUCUCGGGUGCCAA | 1.37 |
| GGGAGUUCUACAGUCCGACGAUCCUCUCUUGGGGACUCUCAAGAGCCUGUGUUCAUCUAGAAGUAGUAGUUUGAUUCUGGUUUCCCUCCUACAGUGUGUCCUCCGUCUCUGUGCAGCUCCGUCAUUACCAUAGUGGAAUUCUCGGGUGCCAA | 0.54 |
| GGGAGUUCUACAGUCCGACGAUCAGCGCUGUAUCUGCAGUGGCAGCCCUUCCCCACUUCGGCUCUGGGAGGGUCCAGCCAGUGUCACCUGGGCCCACCCUUUCCUGCAGCUGCCAGGCCCGUGCGGUCAGUGGUGGAAUUCUCGGGUGCCAA | 0.379 |

Block 3
Target: Prothrombin, mature alpha-thrombin (F2, Homo sapiens, UniProt P00734)
Method: aptamer microarray, sandwich
Molecule type: DNA with 2'F-ANA
Sample: in vitro
Tested at: 200 nM
Setting: whole 15-mer aptamer, many near background
Added: Cy3 exosite-II aptamer, 400 nM
Reading: higher = stronger binding
Oligonucleotide: GGTTGGTGTGGTTGG
| Modification | mean fluorescence intensity |
| --- | --- |
| 2'F-ANA at 2 4 6 9 10 12 15 | 105 a.u. |
| 2'F-ANA at 1 4 11 13 15 | 78.6 a.u. |
| 2'F-ANA at 1 2 6 7 11 12 13 14 15 | 63.9 a.u. |
| 2'F-ANA at 1 3 4 5 8 9 10 12 | 53.2 a.u. |
| 2'F-ANA at 1 4 5 8 9 10 14 15 | 72.2 a.u. |
| 2'F-ANA at 2 3 7 10 11 12 | 483 a.u. |
| 2'F-ANA at 2 8 9 10 11 | 116 a.u. |
| 2'F-ANA at 1 4 7 10 12 13 | 52.9 a.u. |
| 2'F-ANA at 1 2 3 5 6 7 10 11 12 13 14 15 | 155 a.u. |
| 2'F-ANA at 2 3 4 8 9 11 15 | 553 a.u. |
| 2'F-ANA at 1 2 4 5 6 8 10 11 15 | 51.3 a.u. |
| 2'F-ANA at 6 8 11 14 15 | 177 a.u. |
| 2'F-ANA at 5 9 10 13 14 | 44.5 a.u. |
| 2'F-ANA at 2 3 5 9 12 13 | 162 a.u. |
| 2'F-ANA at 5 6 9 11 12 13 15 | 83.3 a.u. |
| 2'F-ANA at 1 7 8 11 13 14 | 69.1 a.u. |
| 2'F-ANA at 2 3 4 6 8 9 13 14 15 | 192 a.u. |
| 2'F-ANA at 1 3 9 10 15 | 81 a.u. |
| 2'F-ANA at 2 4 5 6 7 8 9 13 | 59.7 a.u. |
| 2'F-ANA at 1 3 4 5 6 7 8 11 13 15 | 50.6 a.u. |
| 2'F-ANA at 5 6 7 8 11 12 13 14 15 | 49.9 a.u. |
| 2'F-ANA at 1 6 8 11 | 177 a.u. |
| 2'F-ANA at 2 3 4 6 11 | 516 a.u. |
| 2'F-ANA at 1 2 4 5 7 11 13 15 | 50.6 a.u. |
| 2'F-ANA at 2 3 4 7 10 12 | 394 a.u. |

Block 4
Target: Histone acetyltransferase KAT6A, both winged helices, GST fusion (KAT6A, Homo sapiens, UniProt Q92794, residues 1-181)
Method: protein binding microarray
Molecule type: double-stranded DNA, one strand shown
Sample: in vitro
Tested at: not given
Setting: 8-mer, flanks averaged, mean of 2 arrays, mostly near background
Reference: not given
Reading: higher = stronger binding
Construct (chain): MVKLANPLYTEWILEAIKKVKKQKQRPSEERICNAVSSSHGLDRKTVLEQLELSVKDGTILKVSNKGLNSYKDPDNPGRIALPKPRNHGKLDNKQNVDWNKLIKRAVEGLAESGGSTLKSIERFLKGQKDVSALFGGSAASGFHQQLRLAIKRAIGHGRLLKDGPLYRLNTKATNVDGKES
| Oligonucleotide | E-score |
| --- | --- |
| CTTTCGGA | 0.0564 |
| CAGGACCG | 0.0416 |
| AGTGGGCA | -0.166 |
| ACCACATA | -0.148 |
| GCCAGGAA | 0.0644 |
| ACCAACGT | 0.00057 |
| CAATTGCA | -0.0833 |
| CTCGACAG | -0.0973 |
| CGAAGCAG | -0.0362 |
| AGCCCCAA | -0.304 |
| TCGCTAAA | 0.109 |
| CGCCTCCA | 0.0553 |
| CCGCACCG | 0.262 |
| CCTGTACC | -0.108 |
| AGCTCGCC | 0.0823 |
| CCTAACCG | 0.0797 |
| GAAAATCA | 0.0266 |

A few entries again (block 1):
| Oligonucleotide | E-score |
| --- | --- |
| GCCAGCAC | -0.209 |
| AAGATAAT | 0.28 |
| ACGGGTTA | -0.0525 |
| ACCTTAGT | 0.0516 |
